Published values gathered from unrelated publications.
Each numbered part is a random draw from the data of one study; scales do not carry over between parts.
Sequence of UniProt Q06187 (whole entry, looked up): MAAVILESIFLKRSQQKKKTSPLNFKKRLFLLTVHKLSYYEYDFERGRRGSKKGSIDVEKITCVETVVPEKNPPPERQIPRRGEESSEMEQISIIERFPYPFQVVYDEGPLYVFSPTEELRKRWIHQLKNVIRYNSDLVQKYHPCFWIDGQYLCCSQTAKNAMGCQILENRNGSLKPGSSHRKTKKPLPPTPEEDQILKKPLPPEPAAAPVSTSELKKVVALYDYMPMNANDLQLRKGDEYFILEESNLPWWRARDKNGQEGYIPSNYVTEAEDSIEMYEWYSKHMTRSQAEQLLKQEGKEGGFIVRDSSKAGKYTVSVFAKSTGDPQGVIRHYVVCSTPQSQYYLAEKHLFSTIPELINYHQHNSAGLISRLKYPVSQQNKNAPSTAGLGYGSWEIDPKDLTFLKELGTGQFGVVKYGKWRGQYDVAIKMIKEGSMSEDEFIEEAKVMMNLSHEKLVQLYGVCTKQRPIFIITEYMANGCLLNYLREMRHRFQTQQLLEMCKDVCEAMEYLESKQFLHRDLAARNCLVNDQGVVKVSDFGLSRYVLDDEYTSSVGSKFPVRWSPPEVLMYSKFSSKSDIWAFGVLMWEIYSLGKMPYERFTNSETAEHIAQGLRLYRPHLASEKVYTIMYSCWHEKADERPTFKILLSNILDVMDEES
Sequence of UniProt Q9H093 (whole entry, looked up): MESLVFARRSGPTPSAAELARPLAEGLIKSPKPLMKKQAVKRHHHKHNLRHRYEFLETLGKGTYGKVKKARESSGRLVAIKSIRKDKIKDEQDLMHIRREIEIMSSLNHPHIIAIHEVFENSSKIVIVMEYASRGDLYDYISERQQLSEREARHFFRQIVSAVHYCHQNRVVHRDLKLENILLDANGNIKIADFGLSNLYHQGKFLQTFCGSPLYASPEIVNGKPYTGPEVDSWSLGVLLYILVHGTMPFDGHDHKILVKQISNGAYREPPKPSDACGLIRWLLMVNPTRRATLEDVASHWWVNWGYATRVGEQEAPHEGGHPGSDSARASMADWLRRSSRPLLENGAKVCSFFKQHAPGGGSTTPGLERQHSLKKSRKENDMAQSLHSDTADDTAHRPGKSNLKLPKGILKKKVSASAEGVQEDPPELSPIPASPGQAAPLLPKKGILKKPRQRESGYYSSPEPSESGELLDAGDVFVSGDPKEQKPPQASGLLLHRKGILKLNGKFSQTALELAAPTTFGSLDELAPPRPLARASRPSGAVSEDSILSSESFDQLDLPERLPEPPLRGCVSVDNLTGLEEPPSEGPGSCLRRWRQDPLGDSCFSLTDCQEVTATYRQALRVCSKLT
Sequence of UniProt P23443 (whole entry, looked up): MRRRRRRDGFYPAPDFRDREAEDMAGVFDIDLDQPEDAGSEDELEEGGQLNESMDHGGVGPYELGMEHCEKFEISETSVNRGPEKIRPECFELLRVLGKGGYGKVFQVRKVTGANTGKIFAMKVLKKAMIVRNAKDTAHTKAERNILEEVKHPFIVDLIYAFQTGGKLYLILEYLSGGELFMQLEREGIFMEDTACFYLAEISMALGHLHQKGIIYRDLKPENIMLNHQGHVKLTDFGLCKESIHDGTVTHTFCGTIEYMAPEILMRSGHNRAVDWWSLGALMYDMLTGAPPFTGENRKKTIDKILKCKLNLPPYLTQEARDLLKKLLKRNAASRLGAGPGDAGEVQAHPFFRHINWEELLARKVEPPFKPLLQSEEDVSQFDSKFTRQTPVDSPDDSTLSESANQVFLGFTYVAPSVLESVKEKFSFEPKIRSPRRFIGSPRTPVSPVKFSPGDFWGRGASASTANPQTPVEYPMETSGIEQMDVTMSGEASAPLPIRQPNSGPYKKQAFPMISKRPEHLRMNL
Sequence of UniProt Q9BVS4 (whole entry, looked up): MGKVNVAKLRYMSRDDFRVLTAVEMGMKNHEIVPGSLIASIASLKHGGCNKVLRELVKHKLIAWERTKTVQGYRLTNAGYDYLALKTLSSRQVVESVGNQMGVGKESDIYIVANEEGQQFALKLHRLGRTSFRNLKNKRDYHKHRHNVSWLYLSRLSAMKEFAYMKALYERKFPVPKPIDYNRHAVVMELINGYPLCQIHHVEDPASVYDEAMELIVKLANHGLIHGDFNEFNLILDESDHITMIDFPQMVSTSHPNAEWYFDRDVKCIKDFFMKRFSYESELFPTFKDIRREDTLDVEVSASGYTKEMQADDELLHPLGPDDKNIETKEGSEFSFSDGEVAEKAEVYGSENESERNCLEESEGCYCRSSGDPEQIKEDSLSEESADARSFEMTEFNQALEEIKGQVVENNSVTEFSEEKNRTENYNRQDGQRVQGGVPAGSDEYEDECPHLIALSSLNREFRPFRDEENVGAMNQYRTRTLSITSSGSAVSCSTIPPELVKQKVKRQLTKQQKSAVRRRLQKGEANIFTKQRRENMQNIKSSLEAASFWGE
Sequence of UniProt O75914 (whole entry, looked up): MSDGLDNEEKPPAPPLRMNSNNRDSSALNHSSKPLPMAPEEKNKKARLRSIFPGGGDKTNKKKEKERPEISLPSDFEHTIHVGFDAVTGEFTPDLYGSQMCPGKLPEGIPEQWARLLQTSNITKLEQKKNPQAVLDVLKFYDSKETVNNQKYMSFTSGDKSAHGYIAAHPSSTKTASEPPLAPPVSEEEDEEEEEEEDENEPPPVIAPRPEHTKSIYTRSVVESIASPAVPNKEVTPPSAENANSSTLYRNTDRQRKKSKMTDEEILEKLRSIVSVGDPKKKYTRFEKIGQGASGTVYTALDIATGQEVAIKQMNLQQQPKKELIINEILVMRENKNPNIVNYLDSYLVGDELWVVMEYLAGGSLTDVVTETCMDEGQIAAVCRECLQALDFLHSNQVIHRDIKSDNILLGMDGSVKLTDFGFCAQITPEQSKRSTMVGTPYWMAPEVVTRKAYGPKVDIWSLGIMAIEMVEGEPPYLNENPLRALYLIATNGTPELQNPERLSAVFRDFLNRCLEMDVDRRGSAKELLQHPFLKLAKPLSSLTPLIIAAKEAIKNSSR
Sequence of UniProt Q00536 (whole entry, looked up): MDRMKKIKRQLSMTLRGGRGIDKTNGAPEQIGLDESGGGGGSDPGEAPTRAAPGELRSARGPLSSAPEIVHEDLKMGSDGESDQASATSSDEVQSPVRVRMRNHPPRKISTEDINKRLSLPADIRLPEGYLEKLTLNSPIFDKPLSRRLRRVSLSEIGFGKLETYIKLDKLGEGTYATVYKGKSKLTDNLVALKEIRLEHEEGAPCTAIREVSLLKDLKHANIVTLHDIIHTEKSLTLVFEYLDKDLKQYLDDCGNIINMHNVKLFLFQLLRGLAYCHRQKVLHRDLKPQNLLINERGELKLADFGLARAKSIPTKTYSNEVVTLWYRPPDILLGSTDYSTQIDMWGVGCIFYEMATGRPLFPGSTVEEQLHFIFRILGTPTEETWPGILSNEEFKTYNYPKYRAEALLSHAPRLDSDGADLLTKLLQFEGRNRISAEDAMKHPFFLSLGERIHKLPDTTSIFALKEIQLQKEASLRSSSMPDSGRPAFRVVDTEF

Block 1
Structure (SMILES): CC(=O)N[C@@H](Cc1c[nH]c2ccccc12)C(=O)N[C@@H](CCC(=O)C=[N+]=[N-])C(=O)OC(C)C
Host: mouse, EL4 tumour-bearing
Sample: EL4 tumour
Dose: dose not given
Relative to: vehicle
item | log2 fold change
gamma-glutamylglutamine | -0.25
pantoate | -0.842
arabitol/xylitol | 0.445
3-phosphoglycerate | 0.848

Block 2
Host: human
Sample: microsomes or S9
Tested at: 2 µM
Time: 0.5 h
Structure (SMILES) | remaining compound [%]
CC(O)c1ccc(N2CCN(CCCNC(=O)c3cc4ccccc4s3)CC2)cc1 (centres unmarked) | > 99
Cc1c(C(=O)N2c3ccccc3CC2C)sc2nc(-c3ccccc3)cn12 (centres unmarked) | 89.5
CCc1[nH]c(C(=O)Nc2cc(S(=O)(=O)N3CCCC3)ccc2O)c(C)c1C(=O)OC | 57.7

Block 3
Compound: Cc1nc(Cc2cccc(C(F)(F)F)c2)sc1-c1ccc(C(N)=O)nc1
Observed: cell-free assay
Technique: competition with immobilised ligand
Tested at: 1 µM
target | remaining binding [%]
Cyclin-dependent kinase 8 (CDK8, Homo sapiens, UniProt P49336) | 100
Serine/threonine-protein kinase NIM1 (NIM1K, Homo sapiens, UniProt Q8IY84) | 100
Tyrosine-protein kinase BTK (BTK, Homo sapiens, UniProt Q06187) | 100
Activin receptor type-1 (ACVR1, Homo sapiens, UniProt Q04771) | 100
Ribosomal protein S6 kinase beta-1 (RPS6KB1, Homo sapiens, UniProt P23443) | 83
Serine/threonine-protein kinase TBK1 (TBK1, Homo sapiens, UniProt Q9UHD2) | 91
Cyclin-dependent kinase 16 (CDK16, Homo sapiens, UniProt Q00536) | 100
Peripheral plasma membrane protein CASK (CASK, Homo sapiens, UniProt O14936) | 85
Serine/threonine-protein kinase RIO2 (RIOK2, Homo sapiens, UniProt Q9BVS4) | 98
NUAK family SNF1-like kinase 2 (NUAK2, Homo sapiens, UniProt Q9H093) | 100
Serine/threonine-protein kinase PAK 4 (PAK4, Homo sapiens, UniProt O96013) | 96
Mitogen-activated protein kinase kinase kinase 13 (MAP3K13, Homo sapiens, UniProt O43283) | 100
Epidermal growth factor receptor (EGFR, Homo sapiens, UniProt P00533) | 100
Serine/threonine-protein kinase PAK 3 (PAK3, Homo sapiens, UniProt O75914) | 100

Block 4
Cell line: HaCaT
Tested at: 100 µM
Time: 36 h
SMILES | viability
Nc1ccc(S(=O)(=O)Nc2ccc(Cl)nn2)cc1 | 49.5%
C[C@]12CC[C@@H]3c4ccc(OS(=O)(=O)O)cc4CC[C@H]3[C@@H]1CCC2=O | 96.3%
OC[C@H]1O[C@H](OC[C@H]2O[C@H](OC[C@H]3O[C@H](O[C@]4(CO)O[C@H](CO)[C@@H](O)[C@@H]4O)[C@H](O)[C@@H](O)[C@@H]3O)[C@H](O)[C@@H](O)[C@H]2O)[C@H](O)[C@@H](O)[C@H]1O | 58.6%
C#C[C@]1(O)CC[C@H]2[C@@H]3CCc4cc(OC5CCCC5)ccc4[C@H]3CC[C@@]21C | 4.88%
C=CC1=C(C(=O)O)N2C(=O)[C@@H](NC(=O)/C(=N\OCC(=O)O)c3csc(N)n3)[C@H]2SC1 | 97.4%

Block 5
SMILES: CC(C)n1cnc(-c2ccc(F)cc2)c1-c1ncc(C(=O)Nc2ccc(N3CCN(C)CC3)cc2)[nH]1
Technique: phase 2a trial
Host: idiopathic pulmonary fibrosis patients
dose | notes | patients with anaemia [%]
60 mg once daily | adverse event grade 2 | 0
30 mg once daily | adverse event grade 1 | 0
30 mg once daily | adverse event grade 2 | 0

Excerpt of the above (block 2):
Structure (SMILES) | remaining compound [%]
CC(O)c1ccc(N2CCN(CCCNC(=O)c3cc4ccccc4s3)CC2)cc1 (centres unmarked) | > 99
Cc1c(C(=O)N2c3ccccc3CC2C)sc2nc(-c3ccccc3)cn12 (centres unmarked) | 89.5
CCc1[nH]c(C(=O)Nc2cc(S(=O)(=O)N3CCCC3)ccc2O)c(C)c1C(=O)OC | 57.7
